Results collected from several papers.
Parts stem from different laboratories: compare values within a part only. Changes are numbered by the printed parent chain.

Study 1 — target: CCND3, cyclin fold, Cln2 fusion (human); technique: yeast growth competition, sequencing; matrix: yeast; setting: weak parent motif; relative to: not given; reading: higher = stronger binding; quantity: normalised enrichment score
Starting sequence: CDKN1B docking peptide (human); PSACRNLFGPVDH; partner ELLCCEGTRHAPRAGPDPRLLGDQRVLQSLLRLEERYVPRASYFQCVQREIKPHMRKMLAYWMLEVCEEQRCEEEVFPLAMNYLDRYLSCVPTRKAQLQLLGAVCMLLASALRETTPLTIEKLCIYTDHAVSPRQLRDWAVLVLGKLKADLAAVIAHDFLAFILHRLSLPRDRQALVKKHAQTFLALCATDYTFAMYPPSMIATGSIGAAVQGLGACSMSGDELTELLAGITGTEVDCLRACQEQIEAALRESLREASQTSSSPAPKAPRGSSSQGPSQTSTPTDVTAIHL
PSACGNLFGPVDH [R5G]: 0.0872
PSACRALFGPVDH [N6A]: 0.125
PSACRNLFAPVDH [G9A]: 0.139
PSACRQLFGPVDH [N6Q]: 0.15
PSSCRNLFGPVDH [A3S]: 0.111
PSACRNQFGPVDH [L7Q]: 0.0899
PSACRNLFGDVDH [P10D]: 0.207
PSACRNVFGPVDH [L7V]: 0.118
PSACRNLFGPVTH [D12T]: 0.152
PSACRNLFGPVDG [H13G]: 0.0876
PSACRNLFGQVDH [P10Q]: 0.15
PSACRPLFGPVDH [N6P]: 0.0602
PSACRNPFGPVDH [L7P]: 0.0327
PSACRNLAGPVDH [F8A]: 0.125
PSACINLFGPVDH [R5I]: 0.138
QSACRNLFGPVDH [P1Q]: 0.207
PSACRNLFEPVDH [G9E]: 0.127
PSACRYLFGPVDH [N6Y]: 0.0949
PSACRNLFRPVDH [G9R]: 0.0324
PSACRNLFGGVDH [P10G]: 0.144
PSACRNLFGPVDF [H13F]: 0.125
PSAYRNLFGPVDH [C4Y]: 0.118
PSACRNLFGPVDV [H13V]: 0.132

Study 2 — technique: RNA Bind-n-Seq; form: RNA; matrix: in vitro; concentration: 100 nM; relative to: input RNA pool; reading: higher = stronger binding; quantity: bound/input enrichment
Target: RING finger protein unkempt homolog, zinc fingers 1-6, SBP tag (UNK, Homo sapiens, UniProt Q9C0B0, residues 30-357)
Chain of UniProt Q9C0B0 (30-357, looked up): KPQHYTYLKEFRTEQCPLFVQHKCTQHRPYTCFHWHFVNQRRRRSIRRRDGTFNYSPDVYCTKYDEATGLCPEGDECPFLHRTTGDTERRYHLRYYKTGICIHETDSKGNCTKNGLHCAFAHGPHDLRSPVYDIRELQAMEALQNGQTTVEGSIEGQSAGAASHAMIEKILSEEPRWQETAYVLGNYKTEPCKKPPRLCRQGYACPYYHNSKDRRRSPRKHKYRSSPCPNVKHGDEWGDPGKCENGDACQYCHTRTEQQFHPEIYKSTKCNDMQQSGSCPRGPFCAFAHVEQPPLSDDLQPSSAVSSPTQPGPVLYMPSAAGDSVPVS
Setting: RNA with constant flanks, vertebrate orthologous sites, ends assumed
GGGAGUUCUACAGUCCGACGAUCGAUAAUUGGAUCCUUGUAAUACUGUCCACUUCUACAUCUUGUUCUUCACCUUUCUAUUGCACAUGUCUCUAUUGCACAUAUUAUGUAAACAUAAAGUGAAUAAAGUUGUGUGUUUAAAAUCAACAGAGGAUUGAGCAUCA: 0.284 ratio
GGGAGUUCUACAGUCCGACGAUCCUACUGUAAACAACUCAGGGCAGUAUUCUCGAUAUCCUUACAGUAACCUAAAUCAGGGAUUAGUUAACAGUACAGGGAUGAAUCAAAAUUUAGGCCUUACAAACAGUACUCCAAUGAAUCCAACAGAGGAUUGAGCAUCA: 1.07 ratio
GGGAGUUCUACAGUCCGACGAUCGCAUGAGCAUCUACCCGGGUUUAAAGACCCUCCCUGAUGAGGCUCUCCAUGUAUUUAUCCUGUUUACACCCCUGUCUGUGUGAUUGGCAGAGGAAGGUCAGGGGGGCUCCGUGUUGACAGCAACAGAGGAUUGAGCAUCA: 0.312 ratio
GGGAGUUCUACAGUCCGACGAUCAUUCAAACCUGUGGUACCAUGGCCUCAUGUUGAAGGAGUAGAAGUGGAUUUAGAGUCUAUUAGAAGAAAAAACAAGGCCAAAAAUGAACAUGAACACCAUGCUGGCGGAGAUUCCCAGAACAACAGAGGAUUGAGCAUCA: 0.413 ratio
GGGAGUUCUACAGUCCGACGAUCCAUGUAGUUUGUUUUUAAUUUCAAGCCAAUCUUAUUGUACUUGAAUGUGCCCUGUUUUGUUAGCACACCUAGACUUGCUGUAACUGUACUCAUGUCCCAGAUGUACGUUCUUUCUAUGAACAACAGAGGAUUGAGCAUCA: 1.18 ratio
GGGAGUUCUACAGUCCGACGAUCGUCCUUGAUUCACAUUCCUCUCUGUUUGUGUUUAGAGAAAGAAAGAAAAAAAAAGACAUUUUAGCCUUUUUUAAAGUUACUGAUAUAAUUUCUUGUUACUUGGUUGCAUGAAGCUGCCCUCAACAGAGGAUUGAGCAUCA: 0.656 ratio
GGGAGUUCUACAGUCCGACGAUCUCUUUAUUCCUUCCUUUUCCUUUUUUCGUUUUUUUCUUUUUUCUUUUUUUUUUUUUUUGGUAGUUGUUGUUACCCACGCCAUUUUACGUCUCCUUCACUGAAGGGCUAGAGUUUUAACUUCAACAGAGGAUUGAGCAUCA: 2.79 ratio
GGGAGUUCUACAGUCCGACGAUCCUAGUCUUCCACUUAGGGUUGGCCUCAAACCUAUAGGACUUAUGACAAAUGUAUAUCUACUUAGGUUGAGUUUAAUAUUUUUUUAUUAGCCUGUAAAUAAAGAUUGCAUCUUCUACAUUACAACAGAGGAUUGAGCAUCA: 0.521 ratio
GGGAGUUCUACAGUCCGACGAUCCCUACAAUAAUGAAAACCUAUAGAAAUUUUUUAAUUUUUCAUUUUCCCCUUAGGCAUACAUAGUCUUUCCGCCCCCAGGCAGAUCAUUCUGAGUGUGCGAGUGUGUGUGCACAUGUUACACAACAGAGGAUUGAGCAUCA: 1.25 ratio
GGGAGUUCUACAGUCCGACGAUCAGAGGAUUAGGUUCGAUCCUUUACGUGUUUAAAAAAAAGCAUAAAAACAUUUUAAAAACAUAGAAAAAUUCAGCAAACCAUUUUUAAAGUAGAAGAGGGUUUUAGGUAGAAAAACGUAUUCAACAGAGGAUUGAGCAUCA: 0.725 ratio
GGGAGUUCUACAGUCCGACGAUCUGAGGACUAAUUUGAUUUUCAGUCUCUUUAUCCUUAUUUUAAAAGCCCCCUCUUUUUUAGGCAUAUAUAGUAACAUUAGCAGAAAGAUUUAAUUUGGGCAACUUUUGAUUCUUAAGAGAACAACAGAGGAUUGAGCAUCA: 1.85 ratio

Study 3 — technique: RNA Bind-n-Seq; form: RNA; matrix: in vitro; concentration: 365 nM; relative to: no-protein control; reading: higher = stronger binding; quantity: RBNS enrichment (R)
Target: RNA binding protein fox-1 homolog 2, RRM domain, GST-SBP tag (RBFOX2, Homo sapiens, UniProt O43251-10, residues 100-194)
Setting: natural RNA segment, single round, ends assumed
Target sequence (chain): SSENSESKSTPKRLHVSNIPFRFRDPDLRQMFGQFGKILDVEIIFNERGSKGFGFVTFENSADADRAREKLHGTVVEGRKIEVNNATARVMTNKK
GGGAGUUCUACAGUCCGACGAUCUGUGGUAUUUUAAUGUGGUAAACAUGUGAAUGAAGGCCUGUGGCUCAGUUAAUCACUCCCACAACUUUGAGCUGUGAGUUUUACUGGUGGAAGGAACUUUAACAGGUCUUUGGAAUUCUCGGGUGCCAA: 0.45
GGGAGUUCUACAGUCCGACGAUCGUGUCAUACUGGGGCCAGCGAGAUGGCUCAGUAGGUAAAGGUGCUUGAUGCUAAGCCCGGCAGCCUGUGUUUCAUCUACAGGAUGCACAACAUAAAAGAAAAGAUCUGAUUGGAAUUCUCGGGUGCCAA: 0.4
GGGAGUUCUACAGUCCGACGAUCGCUUCUUCCCCCCAACCCCUGGCUAUUUUAUAUUAAUGGGGAGAGGGGAUUUUUAAAUGUCAUAAAUUUGAAGAGUGGUGGGUUGCAUUUUCUUCAUGGGUUUAUGUUUUUGGAAUUCUCGGGUGCCAA: 0.75
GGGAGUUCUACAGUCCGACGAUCUCUGAAGAUGAGCUAACAAUGCCUUGUCUAGGACUAUUGGCAAAUCUUUGUCGGCACAAUCUUUCUGUUCAAACACAAAUAAAAACUUUGGUAAGUUGGCUAGUUGUUUCUGGAAUUCUCGGGUGCCAA: 0.339
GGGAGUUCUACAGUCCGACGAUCAGGGGAUUUUUAAAUGUCAUAAAUUUGAAGAGUGGUGGGUUGCAUUUUCUUCAUGGGUUUAUGUUUUCGUUUCAUUUUGGACUCAAUUUCACAUCACCAAAUUCCUCAUUUGGAAUUCUCGGGUGCCAA: 0.955
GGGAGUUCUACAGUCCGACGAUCUAAAUGCCUCAGAUGCCCGGGAGGGCCUCUGGUGCCACUGCAUAGUAUAUACUAACAUCAUUCUGCCAAGGUAGGAAGCCCCUGACCCCCAAGCAGUGGUGCCACUCUUCUGGAAUUCUCGGGUGCCAA: 0.657
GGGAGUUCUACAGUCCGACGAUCUUUCUUUUGGCUUGGUUUGGACCACAGUCCUCUGCUACCCAGGGUUUUAGAGCCCCUGCUCUAGGAAACAGUUUAAGAAAUCAUUGGCCCCUUCCCAGCACAUUGAAUGGUGGAAUUCUCGGGUGCCAA: 1.39
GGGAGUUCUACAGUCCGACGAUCUGCAGACUUGAAAAAGCUCUGUCUCCAACAGGGCCUCCUCUGAUCUCAGGAGCCUCAACUGUUUAUUUUGUAGCUGAUGGCACAGUUGAGCCCAAAGCAGGUUCUAAUAAUGGAAUUCUCGGGUGCCAA: 0.392
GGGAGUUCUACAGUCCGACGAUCUUGACCCACCAUCCGUUGCAGAAGCCUCCAGGAGCAGCAAUCCUAAGAGUGGGAGGCAGCCAAGACCCCCUUCCUUCAAAACCUCCCGGAAGUGGUUUCAGGCCCUCUAGUGGAAUUCUCGGGUGCCAA: 0.404
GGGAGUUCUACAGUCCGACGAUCAUUGUCUCUGCCUCCUGAGUGCUGAGAUUAGAGGUUGUGUGCCAUCACCUCUGGGUACUUUUUUAUUUUUUUUUAAAGUUGUGCCUUGUAUGCUGGUAAAUUUUGGAGAGUGGAAUUCUCGGGUGCCAA: 0.39
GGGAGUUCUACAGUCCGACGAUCGCCCUUUUAGAGUCUCUGUGUGAACCCAACUCUACUGAACUUAAACACCUUCCAAACAGUGGCAGGGGCCACAGUGGCAGACAGGGUAGAGUACCCCAGGCAGUUUCUCAUGGAAUUCUCGGGUGCCAA: 0.435
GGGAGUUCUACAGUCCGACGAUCCUGCAUUAUGUGUACAGUAUUGGACAAAGGAUUUUAUUCAUUUUGUUGCAUUAUUUUGAAUAUUGUCUUUUCAUUUUAAUAAAGUUAUAAUACUUAUUUAUGAUACCAUUUGGAAUUCUCGGGUGCCAA: 1.12

Study 4 — technique: protein binding microarray; form: double-stranded DNA, one strand shown; matrix: in vitro; concentration: not given; relative to: not given; reading: higher = stronger binding; quantity: E-score
Target: Histone acetyltransferase KAT6A, both winged helices, GST fusion (KAT6A, Homo sapiens, UniProt Q92794, residues 1-181)
Setting: 8-mer, flanks averaged, mean of 2 arrays, mostly near background
Target sequence (chain): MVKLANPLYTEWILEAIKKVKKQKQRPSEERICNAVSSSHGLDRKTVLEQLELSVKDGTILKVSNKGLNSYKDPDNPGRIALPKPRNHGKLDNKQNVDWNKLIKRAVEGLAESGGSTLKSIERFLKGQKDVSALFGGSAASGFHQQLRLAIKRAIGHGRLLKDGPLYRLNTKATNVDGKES
AAGTAAAT: -0.124
ATACGCCA: 0.0464
ATGTCGAC: -0.113
CTAATGGA: -0.106
AGAGGGCC: -0.0542
ATCCTTGC: -0.0574
GTAACGAA: 0.0112
AAAAGGTA: -0.187
CGATACCA: -0.0567
CGCACGAC: 0.132
GGGGCTTA: -0.0961
ATCCGAGA: -0.0199
TGCAAGCA: 0.0178
AGCGTTGC: 0.133
AATCTGAG: -0.0372
ATTAAACC: 0.0688

Excerpt of the above (study 3):
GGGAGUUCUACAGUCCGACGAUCUCUGAAGAUGAGCUAACAAUGCCUUGUCUAGGACUAUUGGCAAAUCUUUGUCGGCACAAUCUUUCUGUUCAAACACAAAUAAAAACUUUGGUAAGUUGGCUAGUUGUUUCUGGAAUUCUCGGGUGCCAA: 0.339
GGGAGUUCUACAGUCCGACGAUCAGGGGAUUUUUAAAUGUCAUAAAUUUGAAGAGUGGUGGGUUGCAUUUUCUUCAUGGGUUUAUGUUUUCGUUUCAUUUUGGACUCAAUUUCACAUCACCAAAUUCCUCAUUUGGAAUUCUCGGGUGCCAA: 0.955
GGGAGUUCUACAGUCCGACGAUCUAAAUGCCUCAGAUGCCCGGGAGGGCCUCUGGUGCCACUGCAUAGUAUAUACUAACAUCAUUCUGCCAAGGUAGGAAGCCCCUGACCCCCAAGCAGUGGUGCCACUCUUCUGGAAUUCUCGGGUGCCAA: 0.657
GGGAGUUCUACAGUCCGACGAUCUUUCUUUUGGCUUGGUUUGGACCACAGUCCUCUGCUACCCAGGGUUUUAGAGCCCCUGCUCUAGGAAACAGUUUAAGAAAUCAUUGGCCCCUUCCCAGCACAUUGAAUGGUGGAAUUCUCGGGUGCCAA: 1.39
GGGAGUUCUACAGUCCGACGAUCUGCAGACUUGAAAAAGCUCUGUCUCCAACAGGGCCUCCUCUGAUCUCAGGAGCCUCAACUGUUUAUUUUGUAGCUGAUGGCACAGUUGAGCCCAAAGCAGGUUCUAAUAAUGGAAUUCUCGGGUGCCAA: 0.392
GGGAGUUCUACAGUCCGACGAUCUUGACCCACCAUCCGUUGCAGAAGCCUCCAGGAGCAGCAAUCCUAAGAGUGGGAGGCAGCCAAGACCCCCUUCCUUCAAAACCUCCCGGAAGUGGUUUCAGGCCCUCUAGUGGAAUUCUCGGGUGCCAA: 0.404
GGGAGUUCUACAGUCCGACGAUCAUUGUCUCUGCCUCCUGAGUGCUGAGAUUAGAGGUUGUGUGCCAUCACCUCUGGGUACUUUUUUAUUUUUUUUUAAAGUUGUGCCUUGUAUGCUGGUAAAUUUUGGAGAGUGGAAUUCUCGGGUGCCAA: 0.39
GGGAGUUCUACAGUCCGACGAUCGCCCUUUUAGAGUCUCUGUGUGAACCCAACUCUACUGAACUUAAACACCUUCCAAACAGUGGCAGGGGCCACAGUGGCAGACAGGGUAGAGUACCCCAGGCAGUUUCUCAUGGAAUUCUCGGGUGCCAA: 0.435
